# Measurements of several laboratories.
# Compare with care: the assays were run in different laboratories.
# Sequence of UniProt Q04759 (whole entry, looked up): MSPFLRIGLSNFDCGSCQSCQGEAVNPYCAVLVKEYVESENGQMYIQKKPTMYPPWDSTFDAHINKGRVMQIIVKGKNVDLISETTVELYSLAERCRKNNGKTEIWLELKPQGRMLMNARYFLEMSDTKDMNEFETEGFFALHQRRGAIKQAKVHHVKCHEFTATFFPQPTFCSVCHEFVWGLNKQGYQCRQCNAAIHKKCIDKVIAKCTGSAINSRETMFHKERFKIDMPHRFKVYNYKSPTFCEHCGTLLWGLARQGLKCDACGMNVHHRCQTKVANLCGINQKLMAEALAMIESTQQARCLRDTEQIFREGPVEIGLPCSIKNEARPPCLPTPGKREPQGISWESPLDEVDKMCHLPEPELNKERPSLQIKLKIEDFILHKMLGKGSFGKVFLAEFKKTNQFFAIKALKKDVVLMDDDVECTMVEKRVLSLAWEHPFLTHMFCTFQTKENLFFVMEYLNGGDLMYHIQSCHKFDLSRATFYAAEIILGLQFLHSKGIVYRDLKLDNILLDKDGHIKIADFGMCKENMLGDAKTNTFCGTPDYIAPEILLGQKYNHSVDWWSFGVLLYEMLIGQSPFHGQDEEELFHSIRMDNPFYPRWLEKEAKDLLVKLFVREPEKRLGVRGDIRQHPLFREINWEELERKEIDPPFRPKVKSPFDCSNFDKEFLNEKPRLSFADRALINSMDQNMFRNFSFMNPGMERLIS
# Sequence of UniProt Q99640 (whole entry, looked up): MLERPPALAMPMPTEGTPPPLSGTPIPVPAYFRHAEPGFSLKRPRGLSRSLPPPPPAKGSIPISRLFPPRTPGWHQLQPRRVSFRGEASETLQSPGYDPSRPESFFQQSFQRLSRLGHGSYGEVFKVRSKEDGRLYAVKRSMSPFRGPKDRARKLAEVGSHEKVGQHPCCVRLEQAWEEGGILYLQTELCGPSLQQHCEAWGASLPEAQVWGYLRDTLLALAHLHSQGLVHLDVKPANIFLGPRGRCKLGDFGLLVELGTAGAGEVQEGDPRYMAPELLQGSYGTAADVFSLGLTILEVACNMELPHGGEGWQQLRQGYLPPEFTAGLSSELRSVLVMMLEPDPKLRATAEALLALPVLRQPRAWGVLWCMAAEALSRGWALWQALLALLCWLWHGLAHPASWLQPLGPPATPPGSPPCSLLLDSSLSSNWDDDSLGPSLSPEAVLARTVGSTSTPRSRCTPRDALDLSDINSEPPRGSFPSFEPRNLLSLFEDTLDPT
# Sequence of UniProt P48039 (whole entry, looked up): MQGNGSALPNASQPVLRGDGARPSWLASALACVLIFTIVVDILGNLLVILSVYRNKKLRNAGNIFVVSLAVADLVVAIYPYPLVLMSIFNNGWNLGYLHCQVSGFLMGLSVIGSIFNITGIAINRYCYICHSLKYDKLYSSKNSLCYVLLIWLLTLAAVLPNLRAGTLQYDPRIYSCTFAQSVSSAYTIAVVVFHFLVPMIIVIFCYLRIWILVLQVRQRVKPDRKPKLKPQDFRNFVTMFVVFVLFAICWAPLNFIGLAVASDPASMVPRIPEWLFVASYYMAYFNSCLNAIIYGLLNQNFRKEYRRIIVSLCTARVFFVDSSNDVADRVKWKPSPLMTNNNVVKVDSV
# Sequence of UniProt P35590 (whole entry, looked up): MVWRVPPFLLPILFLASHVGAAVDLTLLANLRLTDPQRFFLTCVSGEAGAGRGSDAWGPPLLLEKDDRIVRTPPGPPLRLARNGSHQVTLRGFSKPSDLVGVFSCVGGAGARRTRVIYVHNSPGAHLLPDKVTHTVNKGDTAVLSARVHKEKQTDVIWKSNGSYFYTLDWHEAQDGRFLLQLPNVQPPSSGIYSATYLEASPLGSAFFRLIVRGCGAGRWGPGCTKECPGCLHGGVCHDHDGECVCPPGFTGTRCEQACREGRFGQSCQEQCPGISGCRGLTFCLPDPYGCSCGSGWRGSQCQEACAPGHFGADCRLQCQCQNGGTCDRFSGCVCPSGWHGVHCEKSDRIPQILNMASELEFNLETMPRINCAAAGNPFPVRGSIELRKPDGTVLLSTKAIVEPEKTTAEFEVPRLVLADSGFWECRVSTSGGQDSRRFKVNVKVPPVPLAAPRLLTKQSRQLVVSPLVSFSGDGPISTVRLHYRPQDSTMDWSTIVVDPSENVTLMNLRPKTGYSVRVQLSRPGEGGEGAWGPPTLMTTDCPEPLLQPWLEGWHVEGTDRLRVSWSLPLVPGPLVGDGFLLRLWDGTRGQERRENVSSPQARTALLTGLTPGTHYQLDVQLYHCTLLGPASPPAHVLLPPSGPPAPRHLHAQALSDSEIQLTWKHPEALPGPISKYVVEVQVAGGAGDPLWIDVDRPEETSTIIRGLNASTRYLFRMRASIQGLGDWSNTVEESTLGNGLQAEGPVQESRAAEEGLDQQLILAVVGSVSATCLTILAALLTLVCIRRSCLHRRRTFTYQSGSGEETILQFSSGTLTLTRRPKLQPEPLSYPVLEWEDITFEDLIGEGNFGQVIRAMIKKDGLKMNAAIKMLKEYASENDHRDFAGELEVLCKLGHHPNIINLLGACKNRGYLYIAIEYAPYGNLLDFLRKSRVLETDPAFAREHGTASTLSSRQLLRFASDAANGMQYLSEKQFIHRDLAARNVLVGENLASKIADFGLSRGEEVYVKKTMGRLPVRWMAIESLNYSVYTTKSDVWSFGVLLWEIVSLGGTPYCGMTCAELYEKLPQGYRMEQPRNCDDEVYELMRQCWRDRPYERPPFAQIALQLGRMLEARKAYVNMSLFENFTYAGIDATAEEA
# Sequence of UniProt Q9H4A3 (whole entry, looked up): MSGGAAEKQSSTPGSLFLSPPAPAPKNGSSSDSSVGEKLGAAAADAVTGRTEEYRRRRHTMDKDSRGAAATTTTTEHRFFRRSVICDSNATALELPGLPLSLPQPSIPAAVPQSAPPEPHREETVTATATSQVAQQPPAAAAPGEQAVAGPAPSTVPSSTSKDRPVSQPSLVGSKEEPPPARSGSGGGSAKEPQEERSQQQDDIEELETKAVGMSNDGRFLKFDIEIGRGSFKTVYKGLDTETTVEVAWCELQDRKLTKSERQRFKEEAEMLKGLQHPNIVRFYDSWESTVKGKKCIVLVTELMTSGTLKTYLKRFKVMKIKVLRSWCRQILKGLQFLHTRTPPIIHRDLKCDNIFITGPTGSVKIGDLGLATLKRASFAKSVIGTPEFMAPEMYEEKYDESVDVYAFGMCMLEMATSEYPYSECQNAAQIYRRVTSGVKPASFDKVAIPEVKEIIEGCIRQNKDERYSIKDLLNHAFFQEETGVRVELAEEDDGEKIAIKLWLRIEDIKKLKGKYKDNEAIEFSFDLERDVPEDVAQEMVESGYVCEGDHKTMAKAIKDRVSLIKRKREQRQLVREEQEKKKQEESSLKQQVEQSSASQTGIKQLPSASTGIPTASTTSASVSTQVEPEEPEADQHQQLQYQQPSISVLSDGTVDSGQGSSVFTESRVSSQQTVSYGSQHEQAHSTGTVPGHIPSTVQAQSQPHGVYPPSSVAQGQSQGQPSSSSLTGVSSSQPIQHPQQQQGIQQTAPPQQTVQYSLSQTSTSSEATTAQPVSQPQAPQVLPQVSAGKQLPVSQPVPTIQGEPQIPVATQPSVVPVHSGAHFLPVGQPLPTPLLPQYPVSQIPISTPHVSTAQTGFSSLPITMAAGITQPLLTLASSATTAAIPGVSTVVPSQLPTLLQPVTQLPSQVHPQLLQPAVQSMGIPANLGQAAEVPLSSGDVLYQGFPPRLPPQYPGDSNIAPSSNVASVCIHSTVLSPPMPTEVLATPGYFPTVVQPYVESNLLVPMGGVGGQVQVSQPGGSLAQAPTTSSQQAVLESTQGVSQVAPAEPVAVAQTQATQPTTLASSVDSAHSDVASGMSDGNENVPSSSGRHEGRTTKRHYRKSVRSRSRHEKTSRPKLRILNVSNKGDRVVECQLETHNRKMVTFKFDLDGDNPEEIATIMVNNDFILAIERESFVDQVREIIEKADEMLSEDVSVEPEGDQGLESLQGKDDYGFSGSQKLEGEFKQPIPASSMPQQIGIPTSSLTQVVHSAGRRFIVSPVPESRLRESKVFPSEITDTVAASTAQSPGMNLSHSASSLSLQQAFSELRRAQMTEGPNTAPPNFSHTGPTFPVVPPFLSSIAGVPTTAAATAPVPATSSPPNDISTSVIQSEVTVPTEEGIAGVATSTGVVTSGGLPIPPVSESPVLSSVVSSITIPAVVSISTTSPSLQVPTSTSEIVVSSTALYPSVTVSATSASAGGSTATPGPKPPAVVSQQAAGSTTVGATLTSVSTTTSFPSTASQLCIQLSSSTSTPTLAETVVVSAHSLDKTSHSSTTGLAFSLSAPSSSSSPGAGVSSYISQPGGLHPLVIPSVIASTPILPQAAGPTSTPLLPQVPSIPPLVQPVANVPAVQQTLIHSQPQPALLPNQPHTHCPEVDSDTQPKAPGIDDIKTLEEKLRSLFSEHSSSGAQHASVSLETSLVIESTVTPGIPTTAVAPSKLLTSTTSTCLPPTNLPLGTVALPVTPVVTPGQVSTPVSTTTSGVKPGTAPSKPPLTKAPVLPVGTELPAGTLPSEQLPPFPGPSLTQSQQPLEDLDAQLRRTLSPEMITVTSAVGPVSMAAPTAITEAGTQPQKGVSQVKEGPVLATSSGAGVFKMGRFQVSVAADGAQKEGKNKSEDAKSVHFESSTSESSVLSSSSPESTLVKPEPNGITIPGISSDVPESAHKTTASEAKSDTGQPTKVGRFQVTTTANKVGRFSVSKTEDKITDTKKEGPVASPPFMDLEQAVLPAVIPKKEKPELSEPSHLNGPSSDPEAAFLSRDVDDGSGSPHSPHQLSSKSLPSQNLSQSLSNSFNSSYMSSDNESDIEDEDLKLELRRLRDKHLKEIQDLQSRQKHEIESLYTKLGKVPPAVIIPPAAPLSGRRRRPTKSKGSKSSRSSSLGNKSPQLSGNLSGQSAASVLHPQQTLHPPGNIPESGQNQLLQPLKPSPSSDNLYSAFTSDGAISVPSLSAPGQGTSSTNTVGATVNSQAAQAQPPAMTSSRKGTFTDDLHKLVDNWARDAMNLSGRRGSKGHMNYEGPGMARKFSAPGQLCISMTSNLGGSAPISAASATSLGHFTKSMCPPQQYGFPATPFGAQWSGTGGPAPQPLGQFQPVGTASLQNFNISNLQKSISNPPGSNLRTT
Structure (SMILES),target,assay,system,setting,measurement,value
CC[C@H](C)[C@H](NC(=O)[C@H](CCC(N)=O)NC(=O)[C@@H](NC(=O)[C@H](CCSC)NC(=O)[C@H](CCCCN)NC(=O)[C@H](CO)NC(=O)[C@@H](NC(=O)[C@H](CCSC)NC(=O)[C@H](CC(C)C)NC(=O)[C@H](CC(N)=O)NC(=O)[C@@H](NC(=O)[C@@H](NC(=O)[C@H](CO)NC(=O)[C@H](CC(C)C)NC(=O)[C@H](C)NC(=O)[C@H](CCCNC(=N)N)NC(=O)[C@H](CCC(=O)O)NC(=O)[C@H](Cc1ccc(O)cc1)NC(=O)[C@H](Cc1ccccc1)NC(=O)[C@H](C)NC(=O)[C@H](CC(N)=O)NC(=O)[C@@H](N)CCCCN)[C@@H](C)CC)[C@@H](C)CC)[C@@H](C)O)C(C)C)C(=O)N[C@@H](CC(N)=O)C(=O)N[C@H](C(=O)O)C(C)C,"Mitogen-activated protein kinase 3 (MAPK3, Homo sapiens, UniProt P27361)","enzyme activity, inhibitor, radiometric",,"100 µM, 20 min",remaining activity,85%
CCCCC(=O)Nc1ccc(-c2ccc3ncn(CCC)c(=O)c3c2)cn1,"Tyrosine-protein kinase receptor Tie-1 (TIE1, Homo sapiens, UniProt P35590)","binding, competition with immobilised ligand",,0.5 µM,remaining binding,100%
CNc1ncc2c(/C=C/C(=O)N3CCC(OC)CC3)nn(Cc3cccc(C(F)(F)F)c3)c2n1,"Serine/threonine-protein kinase WNK1 (WNK1, Homo sapiens, UniProt Q9H4A3)","enzyme activity, inhibitor, radiometric",,1 µM,remaining activity,100%
O=C(NCCc1cccc2ccccc12)C1CCC1,"Melatonin receptor type 1A (MTNR1A, Homo sapiens, UniProt P48039)","cAMP, agonist, TR-FRET",CHO-K1,20 min,Emax,22%
Nc1ncnc2occ(-c3ccc(NC(=O)Nc4cc(C(F)(F)F)ccc4F)cc3)c12,"Phosphatidylinositol 4,5-bisphosphate 3-kinase catalytic subunit alpha isoform (PIK3CA, Homo sapiens, UniProt P42336, H1047Y)","cell-free assay, inhibitor",,20 µM,remaining signal,63%
C1=C/COCc2cc(ccc2OCCN2CCCC2)Nc2nccc(n2)-c2cccc(c2)COC/1,"Membrane-associated tyrosine- and threonine-specific cdc2-inhibitory kinase (PKMYT1, Homo sapiens, UniProt Q99640)",cell-free assay,,0.1 µM,remaining signal,95%
FC(F)(F)Oc1cccc(-c2cnc3ccc(-c4ccncc4)nn23)c1,"Vascular endothelial growth factor receptor 1 (FLT1, Homo sapiens, UniProt P17948)","enzyme activity, inhibitor, radiometric",,1 µM,activity vs control,28%
Cc1cc([C@@H](C)Nc2ccccc2C(=O)O)c2nc(N3CCC(F)(F)CC3)c(C#N)c(=O)n2c1,"MAP/microtubule affinity-regulating kinase 3 (MARK3, Homo sapiens, UniProt P27448)","binding, competition with immobilised ligand",,1 µM,remaining binding,100%
C=CC(=O)N1CCC(COCC(=O)N2CCN(c3nc(-c4cnc(N)nc4C(F)F)nc(N4CCOC[C@@H]4C)n3)CC2)CC1,"Tyrosine-protein kinase ABL1, phosphorylated (ABL1, Homo sapiens, UniProt P00519, Q252H)","binding, competition with immobilised ligand",,1 µM,remaining binding,72%
COc1cc(-c2cncc3c2CN(C)Cc2cc(N4CCNCC4)ccc2-3)cc(OC)c1OC,"Protein kinase C theta type (PRKCQ, Homo sapiens, UniProt Q04759)","enzyme activity, inhibitor",,1 µM,remaining activity,117%
